Results gathered from unrelated publications.
Protocols differ between the studies behind these lines. Several values in a cell are separate wells, animals, samples, runs or records. Numbers after ± are the reported error.

| SMILES | target or system | test | test system | setting | scale | quantity | result |
| --- | --- | --- | --- | --- | --- | --- | --- |
| CC(C)C[C@H](NC(=O)[C@H](Cc1ccccc1)NC(=O)[C@H](CCCNC(=N)N)NC(=O)[C@H](C)N)B(O)O | MM1.S | CellTiter-Glo |  | concentration not given, single agent, higher doses |  | growth inhibition | 100% |
| Cc1c(Cl)cccc1Nc1ccccc1C(=O)[Se]CC(=O)Nc1cccc(C(F)(F)F)c1 | NCI60 CNS cancer panel | five-dose screen |  |  |  | GI50 | 1.73 µM |
| CN1CCC(OC(=O)c2ccc(Br)cc2)CC1.Cl | Trypanosoma cruzi | reporter mRNA translation, inhibitor, measured: capped polyadenylated Renilla luciferase mRNA | cell-free extract | concentration not given | baseline: positive over negative control | translation activity | 97.8% and 99.3% and 111% and 109% |
| N#Cc1cccc(/C=C/C(=O)c2ccc(O)cc2)c1 | U-87 MG | measured: METTL12 |  | concentration not given | baseline: untreated | fold change | 0.008 |
| CNS(=O)(=O)Nc1nccc(Cc2c(C)c3ccc(Oc4ncccc4F)cc3oc2=O)c1F | MC116 | cell viability |  | 7 days |  | IC50 | > 1 µM |
| COc1ccccc1-c1ccncc1C(=O)Nc1nnc(OCc2ccc(Cl)cc2)s1 | DLD-1 parental |  |  | 0.125 µM, mean of replicates |  | colony count | 66.5 and 76.5 and 79.5 |
| CCOc1cncc(-c2ccc(NC(=O)C3(c4ccnc(NS(=O)(=O)C5CC5)n4)CCOCC3)nc2)n1 | MEC1 | cell growth or viability, ATP luminescence |  | 72 h |  | IC50 | 0.057 µM |
| COc1cccc(OC)c1-c1cc(C(=O)NC2(C(=O)O)C3CC4CC(C3)CC2C4)nn1-c1ccc(C(=O)NCCNC(=O)[C@H](CCCCNC(=O)[C@H](CC(C)C)NC(=O)C2OC2C(=O)O)NC(=O)CN2CCN(CC(=O)[O-])CCN(CC(=O)[O-])CCN(CC(=O)[O-])CC2)cc1C(C)C.[177Lu+3] (mixture of isomers) | HT-29 |  |  | concentration not given, 60 min | baseline: added activity | internalized fraction | 1.62 ± 0.19% |
| C=C1C(=O)OC2C1CCC(C)(O)C13C=CC(C)(C21)C1(C3)C(=O)OC2C3C(C)=CC(=O)C3=C(C)CCC21 (centres unmarked) | AML12 mouse hepatocytes | lipid accumulation, Nile Red staining |  | maximum safe concentration, 24 h, added: palmitic acid/oleic acid |  | maximum inhibition | 71.8 ± 5.42% |
| Cc1ncsc1-c1ccc(C(C)NC(=O)C2CC(O)CN2C(=O)C(NC(=O)CCCCCCCCCCN2CCCC(Nc3ncc(Cl)c(Nc4ccccc4S(=O)(=O)C(C)C)n3)C2)C(C)(C)C)cc1 (centres unmarked) | 22Rv1 | RNA-seq, measured: SLC66A1 mRNA |  | concentration not given | baseline: DMSO | log2 fold change | -1.34 |
| Cc1cc(NC(=O)c2cccc(NC(=O)/C(C#N)=C/C(C)(C)C)c2)ccc1Nc1nccc(-c2cccnc2)n1 | HEK293 AP1 reporter cells | AP-1 reporter gene, inhibitor |  | 1 µM, 6 h, unit not given, added: PMA | baseline: PMA alone | reporter activity | 0.956 |
| O=S(=O)(C1CC2OC1C(c1ccc(O)cc1)=C2c1ccc(O)cc1)N1CCc2ccccc21 (centres unmarked) | MCF7 3xERE-luc, steroid-deprived | ERE luciferase reporter, agonist |  |  | baseline: vehicle | Emax | 10% |
| C=CC(=O)N1[C@H](c2ccc3c(c2)OCO3)c2[nH]c3ccccc3c2C[C@@H]1C(=O)NC1CC1 | rat DRG neurons |  |  | 0.04115 µM, 48 h, added: vincristine 40 nM |  | neuron degeneration | 77.2% and 72.7% |
| COc1cc(N2CCN(C(=O)C3CCCN3)CC2)ccc1Nc1ncc(Cl)c(Nc2ccccc2P(C)(C)=O)n1 (centres unmarked) | NCI-H3122 | flow cytometry |  | 500 nM, 24 h |  | G1 phase cells | 85.7% and 85.8% and 88% |
| CN(C)Cc1nc(Nc2ccc(-c3cnc4cc(F)ccn34)c3c2C(=O)NC3)ccc1C1CCOC1 (centres unmarked) | human CD8 T cells | cytokine induction, measured: GM-CSF |  | added: anti-CD3/CD28 |  | EC50 | 0.017 µM |
| CO[C@@H]1[C@@H](OC(N)=O)[C@@H](O)[C@H](Oc2ccc3c(O)c(NC(=O)c4ccc(O)c(CC=C(C)C)c4)c(=O)oc3c2C)OC1(C)C | HCT-116 parental |  |  | 50 µM, replicate 1 |  | colony count | 19.5 |
| Cn1ncc2cc(-c3cncc(Cl)c3N3CCC4(CCNC4=O)CC3)ccc21 | LS174T | gene expression, microarray, measured: POU2AF1 mRNA |  | concentration not given, 4 h | baseline: untreated cells | log2 fold change | 1.38 |
| Cc1cc(NC2CCN(C)CC2)ccc1-c1cc2c(N3CCC[C@H](C(=O)NCc4ccc(OC(F)(F)F)cc4)C3)ncnc2[nH]1 | KARPAS-299 | cell growth or viability, MTT |  | 5 µg/mL, 72 h |  | inhibition | 87.2% |
| C=C1C(=O)OC2C1CCC(C)(O)C13C=CC(C)(C21)C1(C3)C(=O)OC2C3C(C)C(=O)CC3C(=C)CC(OC(C)=O)C21 (centres unmarked) | AML12 |  |  | concentration not given, added: palmitate/oleate |  | ATP content | increased |

| SMILES | target or system | test | test system | setting | scale | quantity | result |
| --- | --- | --- | --- | --- | --- | --- | --- |
| Cn1c(=O)n(C2CCC(=O)NC2=O)c2ccc(C3CCN(CC(=O)Nc4cccc(CS(=O)(=O)N5CC[C@H](Nc6cccc(-c7sc(C(=O)O)c(OCC(=O)O)c7Cl)c6)CC5(C)C)c4)CC3)cc21 (some centres unmarked) | B16-F10 | HTRF, measured: phospho-STAT1 Tyr701 |  | 0.123 µM, added: IFN-γ | baseline: DMSO | fold change | 5.65 and 5.44 and 5.2 and 5.37 and 5.21 and 5.17 |
| CCN(C(=O)c1cc(F)ccc1Oc1nncnc1N1CCC2(C1)CN([C@H](CCCN(C)CCOC)C(C)C)C2)C(C)C | Kasumi 1 | cell growth or viability |  | 72 h |  | GI50 | > 10 µM |
| CN1CCN(C(=O)c2ccc(-c3cc4c(N5CCC[C@H](C(=O)NCc6ccc(OC(F)(F)F)cc6)C5)ncnc4[nH]3)cc2)CC1 | KARPAS-299 | cell growth or viability, MTT |  | 0.2 µg/mL, 72 h |  | inhibition | 75.6% |
| C=C1C(=O)OC2C1CCC(C)(O)C13C=CC(C)(C21)C1(C3)C(=O)OC2C3C(C)=CCC3C(C)(O)CCC21 (centres unmarked) | AML12 mouse hepatocytes | lipid accumulation, Nile Red staining |  | maximum safe concentration, 24 h, added: palmitic acid/oleic acid |  | maximum inhibition | 53.2 ± 3.45% |
| Cc1cc(Cl)cc(-c2ccnc3cc(CN4C(=O)C5C(C4=O)C5(C)C)sc23)c1C[C@@H]1CNCCO1 (some centres unmarked) | CHP-212 parental (wild-type USP7) | annexin V-PI flow cytometry |  | 0.3 µM, 48 h |  | apoptotic cells (early plus late) | 38.4% and 35.4% and 26.2% and 31.3% and 42.3% and 35% |
| CN(C)CCN1CCN(c2ccc3nc(-c4ccc5nc(-c6ccc(C(F)(F)F)cc6)[nH]c5c4)[nH]c3c2)CC1 | 786-0 | cell growth, NCI-60 SRB |  | 10 µM, 48 h |  | growth percent | 78.5% |
| CCCCN1C(=O)c2cccc3c(NCCCCCCCCCCN4CCOCC4)ccc(c23)C1=O | BHK-21 | confocal lambda scanning |  |  |  | emission maximum in ER | 537 nm |
| N=C(N)NCCC[C@@H](NC(=O)[C@H](Cc1ccccc1)NC(=O)[C@H](Cc1ccccc1)NC(=O)[C@@H](CCCNC(=N)N)NC(=O)CCCC[C@@H]1SC[C@@H]2NC(=O)N[C@@H]21)C(N)=O | MDBK cells | measured: CM-H2DCFDA fluorescence |  | 1 µM, 3 days, serum-free | baseline: untreated | reduction of oxidative stress | > 80% and 80% |
| CC(C)c1ccc(N(C)c2ccc3c(c2)OCC[C@H]3CNc2cnccc2C(=O)O)cc1 | BICR22 | cell viability, CellTiter-Glo |  | 7 days |  | IC50 | ≥ 10 µM |
| COC1=C2CC(C)CC(OC)C(O)C(C)C=C(C)C(OC(N)=O)C(OC)C=CC=C(C)C(=O)NC(=CC1=O)C2=O (centres unmarked) | Rh30 | ChIP-seq, measured: H3K36me3 peak |  | concentration not given, CENPU TTS chr4:185611800-185620399 | baseline: untreated control | log fold change | -0.529 |
| C[C@@H](Nc1nc2c(cnn2C(C)(C)C)c(=O)n1Cc1cccc(F)c1)c1ccc(Cl)cc1 | BV-2 | measured: Il-1β, Il-6, Tnf-α |  | concentration not given, added: LPS |  | mRNA level | decreased |
| CN1CCCNC(=O)c2cccc(c2)C(=O)NCCCN(C)CCCNc2cccc3c2C(=O)c2cccc(c2C3=O)NCCC1 | SAS | RNA-Seq, measured: DDX42 mRNA |  | 1 µM, 6 h | baseline: untreated cells | log2 fold change | -1.75 |
| CCN(CC)CCNC(=S)Nc1ccc2nc(N3CCN(CC)CC3)cc(C)c2c1 | U2OS SSA-GFP reporter | single-strand annealing, flow cytometry |  | 15 µM |  | GFP-positive cells | 4.94% |
| CC(=O)c1cccc(CN2CCCC(CCC(=O)NCc3ccccc3F)C2)c1 (centres unmarked) | Trypanosoma cruzi | reporter mRNA translation, inhibitor, measured: Renilla luciferase mRNA | cell-free extract | concentration not given, test 2 | baseline: positive over negative control | translation activity | 105% and 102% |
| Cc1ccc(-n2cc(CSc3nc4ccccc4n3Cc3cn(-c4ccc(C)cc4)nn3)nn2)cc1 | HEK293 | MTT |  | 3.91 ppm |  | cytotoxicity | 6.14% |
| CCNc1cc2c(cc1C)C1(c3cc(C)c(NCC)cc3O2)c2ccccc2C(=O)N1N=Cc1c[c-]c(-c2ccccn2)cc1.Cc1c(C)c(-c2ccc(-c3ccccc3)cc2)[c-](C)c1C.[Cl-].[Ir+3] | A549 | mitochondrial membrane potential loss, JC-1 flow cytometry |  | 2.0 x IC50, 24 h |  | JC-1 monomer cells | 3.86 ± 0.27% |
| CCN(CC)CC(=O)Nc1cccc(-n2cc(-c3ccc4ccc(-c5cn(-c6cccc(NC(=O)CN(CC)CC)c6)nn5)cc4c3)nn2)c1 | RCC4 | PCR angiogenesis array, measured: NOS3 |  | 5 x IC50, 4 h, normoxia | baseline: untreated | fold regulation | 1.06 |
| COC(=O)c1cc(NC2=NC(=O)C(=Cc3ccc(N(C)C)cc3)S2)ccc1OC(C)=O | A549 | measured: BECN1 |  | 2.93 µM, 24 h | baseline: DMSO | mRNA level | 187 fold change |
| CSC(=S)N/N=C(\C)c1ccc(Nc2nnc(-c3ccc(Cl)cc3)c3ccccc23)cc1 | HepG2 | cell growth or viability, MTT |  | 0.312 µM, 24 h |  | viability | 17.6% |

Some of these lines once more:
| SMILES | target or system | test | test system | setting | scale | quantity | result |
| --- | --- | --- | --- | --- | --- | --- | --- |
| N=C(N)NCCC[C@@H](NC(=O)[C@H](Cc1ccccc1)NC(=O)[C@H](Cc1ccccc1)NC(=O)[C@@H](CCCNC(=N)N)NC(=O)CCCC[C@@H]1SC[C@@H]2NC(=O)N[C@@H]21)C(N)=O | MDBK cells | measured: CM-H2DCFDA fluorescence |  | 1 µM, 3 days, serum-free | baseline: untreated | reduction of oxidative stress | > 80% and 80% |
| COc1cccc(OC)c1-c1cc(C(=O)NC2(C(=O)O)C3CC4CC(C3)CC2C4)nn1-c1ccc(C(=O)NCCNC(=O)[C@H](CCCCNC(=O)[C@H](CC(C)C)NC(=O)C2OC2C(=O)O)NC(=O)CN2CCN(CC(=O)[O-])CCN(CC(=O)[O-])CCN(CC(=O)[O-])CC2)cc1C(C)C.[177Lu+3] (mixture of isomers) | HT-29 |  |  | concentration not given, 60 min | baseline: added activity | internalized fraction | 1.62 ± 0.19% |
| N#Cc1cccc(/C=C/C(=O)c2ccc(O)cc2)c1 | U-87 MG | measured: METTL12 |  | concentration not given | baseline: untreated | fold change | 0.008 |
